Measurements collected from several papers.
Every numbered part comes from another study and shows a few of its results, in no order. Positions count from the first letter of the parent shown.
UniProt Q9ZSY8, sequence (whole entry, looked up): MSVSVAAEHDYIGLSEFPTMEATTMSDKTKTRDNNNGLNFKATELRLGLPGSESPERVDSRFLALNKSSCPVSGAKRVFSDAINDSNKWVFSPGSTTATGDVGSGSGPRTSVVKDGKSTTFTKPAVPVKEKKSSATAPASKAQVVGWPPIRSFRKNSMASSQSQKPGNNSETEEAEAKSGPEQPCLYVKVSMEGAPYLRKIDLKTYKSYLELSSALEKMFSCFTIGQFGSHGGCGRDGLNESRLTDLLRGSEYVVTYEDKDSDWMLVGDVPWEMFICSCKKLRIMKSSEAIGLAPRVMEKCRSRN
UniProt Q8L7G0, sequence (whole entry, looked up): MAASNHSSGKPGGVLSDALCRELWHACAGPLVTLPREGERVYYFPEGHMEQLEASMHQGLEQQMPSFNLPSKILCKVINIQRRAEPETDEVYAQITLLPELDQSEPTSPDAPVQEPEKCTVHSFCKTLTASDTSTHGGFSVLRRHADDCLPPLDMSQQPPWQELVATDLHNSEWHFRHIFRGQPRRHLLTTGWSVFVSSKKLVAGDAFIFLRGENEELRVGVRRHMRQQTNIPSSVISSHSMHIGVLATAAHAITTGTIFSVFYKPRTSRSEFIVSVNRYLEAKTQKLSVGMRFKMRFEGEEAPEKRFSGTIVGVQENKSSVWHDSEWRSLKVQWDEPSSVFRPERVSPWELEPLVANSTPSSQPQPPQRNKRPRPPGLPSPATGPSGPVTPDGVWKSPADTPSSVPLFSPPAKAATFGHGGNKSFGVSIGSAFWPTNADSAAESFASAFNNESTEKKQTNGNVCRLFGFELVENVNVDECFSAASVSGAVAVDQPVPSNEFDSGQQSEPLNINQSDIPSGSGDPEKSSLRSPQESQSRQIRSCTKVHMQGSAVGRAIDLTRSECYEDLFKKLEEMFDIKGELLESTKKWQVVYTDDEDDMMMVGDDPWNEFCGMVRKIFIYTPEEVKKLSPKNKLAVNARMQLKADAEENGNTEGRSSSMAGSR
UniProt Q9ZPY6, sequence (whole entry, looked up): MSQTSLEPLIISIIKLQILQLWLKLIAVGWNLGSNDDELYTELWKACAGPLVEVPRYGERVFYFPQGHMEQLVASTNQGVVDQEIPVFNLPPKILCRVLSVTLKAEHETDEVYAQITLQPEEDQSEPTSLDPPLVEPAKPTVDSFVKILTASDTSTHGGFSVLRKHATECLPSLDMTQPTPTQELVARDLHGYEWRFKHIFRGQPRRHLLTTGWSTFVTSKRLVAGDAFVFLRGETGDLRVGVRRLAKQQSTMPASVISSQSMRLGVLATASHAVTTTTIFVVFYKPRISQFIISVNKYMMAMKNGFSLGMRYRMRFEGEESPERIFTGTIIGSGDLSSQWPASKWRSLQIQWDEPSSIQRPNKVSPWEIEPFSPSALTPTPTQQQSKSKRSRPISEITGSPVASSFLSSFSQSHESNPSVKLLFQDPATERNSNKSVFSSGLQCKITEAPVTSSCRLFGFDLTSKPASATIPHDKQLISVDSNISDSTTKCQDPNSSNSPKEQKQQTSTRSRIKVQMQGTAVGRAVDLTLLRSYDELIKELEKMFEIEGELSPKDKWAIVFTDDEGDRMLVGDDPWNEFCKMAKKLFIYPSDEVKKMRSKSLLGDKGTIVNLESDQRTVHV
UniProt Q9FX25, sequence (whole entry, looked up): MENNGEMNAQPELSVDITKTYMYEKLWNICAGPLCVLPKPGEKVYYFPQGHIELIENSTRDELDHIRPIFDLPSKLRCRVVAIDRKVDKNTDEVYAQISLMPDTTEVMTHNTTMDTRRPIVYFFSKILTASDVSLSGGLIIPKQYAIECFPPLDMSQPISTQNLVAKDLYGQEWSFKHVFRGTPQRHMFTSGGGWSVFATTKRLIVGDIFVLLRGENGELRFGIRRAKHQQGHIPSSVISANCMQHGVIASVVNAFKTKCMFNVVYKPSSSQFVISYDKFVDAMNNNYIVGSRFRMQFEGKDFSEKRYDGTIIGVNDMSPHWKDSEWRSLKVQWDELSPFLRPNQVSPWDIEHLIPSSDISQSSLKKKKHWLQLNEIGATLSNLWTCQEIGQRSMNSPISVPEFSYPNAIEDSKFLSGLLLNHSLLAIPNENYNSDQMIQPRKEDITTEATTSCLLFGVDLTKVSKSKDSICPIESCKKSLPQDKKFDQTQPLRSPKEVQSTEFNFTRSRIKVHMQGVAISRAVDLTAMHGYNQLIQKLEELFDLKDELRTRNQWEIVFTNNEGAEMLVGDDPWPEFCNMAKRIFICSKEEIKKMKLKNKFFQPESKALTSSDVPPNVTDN

Block 1
Molecule: B1 (IAA12)
Method: two-hybrid
Reference: out of 4 tests
Direction: higher = firmer interaction
Measurement: positive tests
B1: IAA12 (Arabidopsis thaliana, UniProt Q38830); chain MRGVSELEVGKSNLPAESELELGLGLSLGGGAWKERGRILTAKDFPSVGSKRSAESSSHQGASPPRSSQVVGWPPIGLHRMNSLVNNQAMKAARAEEGDGEKKVVKNDELKDVSMKVNPKVQGLGFVKVNMDGVGIGRKVDMRAHSSYENLAQTLEEMFFGMTGTTCREKVKPLRLLDGSSDFVLTYEDKEGDWMLVGDVPWRMFINSVKRLRIMGTSEASGLAPRRQEQKDRQRNNPV
ARF1 538-665 (Arabidopsis thaliana, UniProt Q8L7G0): 0
ARF11 500-622 (Arabidopsis thaliana, UniProt Q9ZPY6): 0
IAA27 (Arabidopsis thaliana, UniProt Q9ZSY8): 1
ARF13 (Arabidopsis thaliana, UniProt Q9FX25): 0

Block 2
Target: UBE2E2 UBC core domain (UniProt Q96LR5)
UniProt Q96LR5, sequence (whole entry, looked up): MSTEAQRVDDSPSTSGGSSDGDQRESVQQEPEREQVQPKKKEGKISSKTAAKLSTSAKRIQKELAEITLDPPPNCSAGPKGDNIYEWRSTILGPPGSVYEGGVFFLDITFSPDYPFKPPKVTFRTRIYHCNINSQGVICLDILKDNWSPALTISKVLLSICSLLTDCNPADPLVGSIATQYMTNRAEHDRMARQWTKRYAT
Method: yeast two-hybrid
Matrix: yeast
Notes: mostly zero background
Reference: not given
Direction: higher = stronger interaction
Measurement: lacZ reporter activity
B2: TRIM43 RING domain (UniProt Q96BQ3); chain FSHAFQKELTCVICLNYLVDPVTICCGHSFCRPCLCLSWEEAQSPANCPACREPSPKMDFKT
B3: RC3H1 RING domain (UniProt Q5TC82); chain QAPQWTDFLSCPICTQTFDETIRKPISLGCGHTVCKMCLNKLHRKACPFDQTTINTDIELL
B4: TRIM5 RING domain (UniProt Q9C035); chain LREVKLSPEGQKVDHCARHGEKLLLFCQEDGKVICWLCERSQEHRGHHTFLTEEVAREYQVKL
B5: MKRN1 RING domain (UniProt Q9UHC7); chain FAVQRSKDMVCGICMEVVYEKANPSERRFGILSNCNHTYCLKCIRKWRSAKQFESKIIKSCPECRITSNFVIPSE
B6: TRIM24 RING domain (UniProt O15164); chain EAARLNLLDTCAVCHQNIQSRAPKLLPCLHSFCQRCLPAPQRYLMLPAPMLGSAETPPPVPAPGSPVSGSSPFATQVGVIRCPVCSQECAERHII
B7: VPS41 RING domain (UniProt P49754); chain KGVLVDEENICESCLSPILPSDAAKPFSVVVFHCRHMFHKECLPMPSMNSAAQFCNICSAKNRGPGSAI
B8: RNF208 RING domain (UniProt Q9H0X6); chain SSAAAGEPLECPTCGHSYNVTQRRPRVLSCLHSVCEQCLQILYESCPKYKFISCPTCRRETVLFTDYG
B2 (TRIM43 RING domain): 0
B3 (RC3H1 RING domain): 0
DHGAVGQEMCCPICCSEYVKGEVATELPCHHYFHKPCVSIWLQKSGTCPVCRCMFPPPL (PJA1 RING domain (UniProt Q8NG27)): 0
B4 (TRIM5 RING domain): 0
B5 (MKRN1 RING domain): 0
VEPSEENSKDCVVCQNGTVNWVLLPCRHTCLCDGCVKYFQQCPMCRQFVQESFALC (CGRRF1 RING domain (UniProt Q99675)): 0
B6 (TRIM24 RING domain): 0
B7 (VPS41 RING domain): 0
QVDKAVFHMQSVKCLKCQEQKRAVLPCQHAALCELCAEGSECPICQPGRAHTLQS (UNK RING domain (UniProt Q9C0B0)): 0
B8 (RNF208 RING domain): 0

Block 3
Target: CCNE2, cyclin fold, Cln2 fusion (human)
Method: yeast growth competition, sequencing
Matrix: yeast
Notes: strong parent motif
Reference: not given
Direction: higher = stronger binding
Measurement: normalised enrichment score
Starting sequence: RBL1 docking peptide (human); GSAKRRLFGEDPP
D11C: 3.76
E10A: 3.21
A3C: 4.44
D11E: 4.71
G9S: 5.57
K4L: 0.359
P13S: 4.35
E10Y: 3.23
F8N: -0.207
G9Q: 5.44
G9H: 5.11
G1C: 4.57
P13V: 4.49
P13Q: 3.75
L7C: 1.23
K4R: 4.98
P13A: 4.33

Block 4
Target: RNA binding protein fox-1 homolog 2, RRM domain, GST-SBP tag (RBFOX2, Homo sapiens, UniProt O43251-10, residues 100-194)
Method: RNA Bind-n-Seq
Form: RNA
Matrix: in vitro
Concentration: 365 nM
Notes: natural RNA segment, single round, ends assumed
Reference: no-protein control
Direction: higher = stronger binding
Measurement: RBNS enrichment (R)
Shared flanks, not repeated: GGGAGUUCUACAGUCCGACGAUC … UGGAAUUCUCGGGUGCCAA
Target sequence (chain): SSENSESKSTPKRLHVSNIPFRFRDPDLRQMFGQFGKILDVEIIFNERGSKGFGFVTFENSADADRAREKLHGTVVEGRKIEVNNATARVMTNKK
CAUCAAAAUGUUACUGCCGGUUGAAAGCCAUGAUCAUGUGCAAAGGAUGUGGAGCUUUCUGCCAUGAUGAUUGCAUUGGCCCCUCCAAACUCUGUGUCUCCUGCCUUGUU: 2.24
GAUGGUGAUAUGAAACAAAAAGUGGCAAUUAUUGCAGGUUUCCUUUUAGUUUACAAAAGUACUGGAAACUAAAUCAUAUUUCUUCCCUCCAAAUUUCACCCAUUCCUGAC: 0.42
UUAAUCAGUGUGAUUAAUGCAGCACCCAUUGCCCCGGGAACCGUUUCUGCUGUACUAUCUGGAUACUAAAAUGUUACGGAAGUAGCUCUUUGUUCUCCCUCACUCUGCCC: 0.478
ACCCUUUGUUAGAAGUGUUGACGCUCCAAGCACGCGUGUGAAGCACCAUGUAUCUUGGCCGGUUUCAUAUUUGUAAGAAGCACCGGUAGGAACCUAAGAGCAUCGGUUGG: 1.82
UUCACCUUUAGGGAUCUCAGCACAAUUAGAAUCGUAAAGUGAAUUCUAUCUAUUUAAUUGGAUAUUGGACUCUGCUCAUAUAAGCUACAGACAAAAGCCAAAAGACUCUC: 0.339
GCCUUGGGGACCCUUUCUUCUCUCUGAUGAUGGCAGUCUGGAAUAAAGCACUGUCACCUUUGACUCUAUUACCUGUUGCAAAGCCAGAGGGCUGCCCUUCUCUGCAAAAC: 0.487
AAUUUCACUUUUUGAAACUAUAGAGAGAUCCCUUUCUGAUUAGCCUACAGAACUUAAAGUGAGGGAACCAUUUCCUCUCACAGACAAAGAGGCCUGGGAUAUUAGGACUU: 0.238
GGCCGGAGGUGUGUGUGGGGGGUUGCUCUGUUGUUUCCUUCCUAAUAAAAUAAAGACGUGUUGCCUUGUGUUGGGCUUCGUGUCACUCAUUUCUGCACUGAACAGUAGAU: 0.331

Some of these lines once more (block 2):
B3 (RC3H1 RING domain): 0
DHGAVGQEMCCPICCSEYVKGEVATELPCHHYFHKPCVSIWLQKSGTCPVCRCMFPPPL (PJA1 RING domain (UniProt Q8NG27)): 0
B4 (TRIM5 RING domain): 0
B5 (MKRN1 RING domain): 0
VEPSEENSKDCVVCQNGTVNWVLLPCRHTCLCDGCVKYFQQCPMCRQFVQESFALC (CGRRF1 RING domain (UniProt Q99675)): 0
B6 (TRIM24 RING domain): 0
